Experimental data pooled from the literature.
Numbered parts are unrelated; each lists some results of a single study.
Sequence of UniProt P10721 (whole entry, unmodified, looked up): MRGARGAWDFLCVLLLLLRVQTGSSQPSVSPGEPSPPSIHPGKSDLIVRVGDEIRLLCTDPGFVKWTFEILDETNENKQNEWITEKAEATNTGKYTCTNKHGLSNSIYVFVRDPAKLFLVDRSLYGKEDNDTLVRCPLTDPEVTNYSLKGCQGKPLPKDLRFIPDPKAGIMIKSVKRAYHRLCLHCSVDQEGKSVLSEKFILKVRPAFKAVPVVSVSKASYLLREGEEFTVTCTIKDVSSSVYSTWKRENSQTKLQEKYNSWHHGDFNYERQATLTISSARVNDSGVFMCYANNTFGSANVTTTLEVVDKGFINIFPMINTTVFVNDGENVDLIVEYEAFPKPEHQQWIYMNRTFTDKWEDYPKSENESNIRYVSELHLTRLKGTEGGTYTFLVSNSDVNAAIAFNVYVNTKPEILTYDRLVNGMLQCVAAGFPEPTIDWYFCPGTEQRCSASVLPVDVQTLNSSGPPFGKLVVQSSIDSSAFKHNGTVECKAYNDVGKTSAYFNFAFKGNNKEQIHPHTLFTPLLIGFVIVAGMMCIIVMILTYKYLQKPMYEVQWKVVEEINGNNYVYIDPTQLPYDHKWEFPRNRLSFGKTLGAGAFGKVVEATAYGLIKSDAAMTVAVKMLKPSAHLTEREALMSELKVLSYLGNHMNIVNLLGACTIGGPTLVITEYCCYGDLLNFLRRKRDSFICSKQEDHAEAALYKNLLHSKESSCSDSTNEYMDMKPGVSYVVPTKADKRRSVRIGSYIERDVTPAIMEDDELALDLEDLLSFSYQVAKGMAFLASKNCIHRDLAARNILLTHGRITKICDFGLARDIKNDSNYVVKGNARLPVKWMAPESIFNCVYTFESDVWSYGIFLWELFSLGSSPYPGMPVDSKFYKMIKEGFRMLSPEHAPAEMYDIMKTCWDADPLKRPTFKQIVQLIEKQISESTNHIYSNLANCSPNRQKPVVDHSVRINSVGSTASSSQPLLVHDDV
Sequence of UniProt P21802 (whole entry, looked up): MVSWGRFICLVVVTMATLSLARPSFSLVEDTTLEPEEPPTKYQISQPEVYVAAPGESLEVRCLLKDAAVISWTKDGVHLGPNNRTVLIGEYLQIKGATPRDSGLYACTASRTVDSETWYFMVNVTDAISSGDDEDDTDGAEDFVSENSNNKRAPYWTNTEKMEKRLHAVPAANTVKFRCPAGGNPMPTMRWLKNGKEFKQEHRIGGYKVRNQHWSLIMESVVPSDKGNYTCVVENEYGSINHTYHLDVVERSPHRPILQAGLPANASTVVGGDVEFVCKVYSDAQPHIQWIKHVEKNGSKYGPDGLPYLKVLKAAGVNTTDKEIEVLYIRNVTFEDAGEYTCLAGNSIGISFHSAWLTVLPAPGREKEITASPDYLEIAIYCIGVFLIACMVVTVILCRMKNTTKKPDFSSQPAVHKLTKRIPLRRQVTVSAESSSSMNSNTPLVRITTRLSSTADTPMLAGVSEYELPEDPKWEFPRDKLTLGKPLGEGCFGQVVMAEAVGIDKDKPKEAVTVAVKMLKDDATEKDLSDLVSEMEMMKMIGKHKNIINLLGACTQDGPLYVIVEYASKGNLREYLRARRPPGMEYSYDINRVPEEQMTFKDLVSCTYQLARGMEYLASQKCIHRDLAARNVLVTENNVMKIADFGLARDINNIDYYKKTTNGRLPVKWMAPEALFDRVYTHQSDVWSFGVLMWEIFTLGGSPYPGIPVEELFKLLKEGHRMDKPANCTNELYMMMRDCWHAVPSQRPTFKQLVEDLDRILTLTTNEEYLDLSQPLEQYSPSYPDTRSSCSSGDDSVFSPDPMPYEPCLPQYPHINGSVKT
Sequence of UniProt Q08345 (whole entry, looked up): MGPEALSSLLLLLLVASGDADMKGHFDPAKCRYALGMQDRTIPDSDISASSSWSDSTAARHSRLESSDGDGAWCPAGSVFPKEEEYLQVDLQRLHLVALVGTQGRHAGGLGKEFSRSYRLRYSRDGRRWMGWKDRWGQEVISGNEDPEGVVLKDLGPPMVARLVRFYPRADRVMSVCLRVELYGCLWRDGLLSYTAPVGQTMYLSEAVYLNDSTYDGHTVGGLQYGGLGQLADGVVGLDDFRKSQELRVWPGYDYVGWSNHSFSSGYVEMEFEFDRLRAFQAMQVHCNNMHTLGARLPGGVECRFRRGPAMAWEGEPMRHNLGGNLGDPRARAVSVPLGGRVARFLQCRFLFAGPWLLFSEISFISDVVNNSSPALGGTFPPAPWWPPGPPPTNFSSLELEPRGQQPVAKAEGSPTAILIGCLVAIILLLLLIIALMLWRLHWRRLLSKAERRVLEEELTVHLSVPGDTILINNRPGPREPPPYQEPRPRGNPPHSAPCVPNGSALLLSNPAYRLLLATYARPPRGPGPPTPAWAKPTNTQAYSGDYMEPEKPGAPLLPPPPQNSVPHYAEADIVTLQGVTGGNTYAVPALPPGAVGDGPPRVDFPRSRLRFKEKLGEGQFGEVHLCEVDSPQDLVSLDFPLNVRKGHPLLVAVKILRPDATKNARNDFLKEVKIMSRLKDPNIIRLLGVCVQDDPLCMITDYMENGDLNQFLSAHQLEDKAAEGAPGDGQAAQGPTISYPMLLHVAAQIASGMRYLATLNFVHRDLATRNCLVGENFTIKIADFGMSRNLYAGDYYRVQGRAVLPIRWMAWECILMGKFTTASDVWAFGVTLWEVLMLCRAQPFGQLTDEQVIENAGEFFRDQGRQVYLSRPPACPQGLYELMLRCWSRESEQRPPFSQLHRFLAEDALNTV
Sequence of UniProt P04049 (whole entry, looked up): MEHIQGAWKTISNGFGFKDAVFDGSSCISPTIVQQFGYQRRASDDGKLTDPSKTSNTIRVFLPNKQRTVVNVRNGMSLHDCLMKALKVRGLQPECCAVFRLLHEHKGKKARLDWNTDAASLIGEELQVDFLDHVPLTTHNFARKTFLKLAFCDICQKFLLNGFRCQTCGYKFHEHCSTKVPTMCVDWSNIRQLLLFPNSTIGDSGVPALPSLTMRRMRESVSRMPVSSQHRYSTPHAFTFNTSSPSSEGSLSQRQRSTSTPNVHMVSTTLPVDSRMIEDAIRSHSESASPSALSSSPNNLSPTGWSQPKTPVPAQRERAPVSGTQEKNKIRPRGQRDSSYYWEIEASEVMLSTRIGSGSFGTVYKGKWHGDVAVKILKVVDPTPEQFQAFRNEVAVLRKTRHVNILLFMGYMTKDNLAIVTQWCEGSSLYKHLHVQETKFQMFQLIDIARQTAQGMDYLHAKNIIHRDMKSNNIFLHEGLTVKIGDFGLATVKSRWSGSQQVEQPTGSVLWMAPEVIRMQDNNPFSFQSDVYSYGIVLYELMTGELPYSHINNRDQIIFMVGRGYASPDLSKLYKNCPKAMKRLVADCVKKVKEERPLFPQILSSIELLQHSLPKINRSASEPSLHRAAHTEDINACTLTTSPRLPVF
Sequence of UniProt Q13043 (whole entry, looked up): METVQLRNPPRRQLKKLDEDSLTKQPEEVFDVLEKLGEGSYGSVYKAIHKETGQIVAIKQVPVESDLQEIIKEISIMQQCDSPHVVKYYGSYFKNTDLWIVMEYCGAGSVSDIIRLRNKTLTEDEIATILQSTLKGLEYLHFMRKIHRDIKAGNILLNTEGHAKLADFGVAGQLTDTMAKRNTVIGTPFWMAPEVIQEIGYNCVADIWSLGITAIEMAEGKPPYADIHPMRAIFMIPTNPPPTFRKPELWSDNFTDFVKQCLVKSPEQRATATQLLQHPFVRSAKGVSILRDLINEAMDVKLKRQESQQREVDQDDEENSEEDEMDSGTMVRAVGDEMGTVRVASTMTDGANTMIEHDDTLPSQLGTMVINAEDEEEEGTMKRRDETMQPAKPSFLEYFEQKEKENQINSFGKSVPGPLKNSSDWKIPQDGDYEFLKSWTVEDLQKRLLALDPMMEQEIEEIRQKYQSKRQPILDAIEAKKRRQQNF
Sequence of UniProt P49759 (whole entry, looked up): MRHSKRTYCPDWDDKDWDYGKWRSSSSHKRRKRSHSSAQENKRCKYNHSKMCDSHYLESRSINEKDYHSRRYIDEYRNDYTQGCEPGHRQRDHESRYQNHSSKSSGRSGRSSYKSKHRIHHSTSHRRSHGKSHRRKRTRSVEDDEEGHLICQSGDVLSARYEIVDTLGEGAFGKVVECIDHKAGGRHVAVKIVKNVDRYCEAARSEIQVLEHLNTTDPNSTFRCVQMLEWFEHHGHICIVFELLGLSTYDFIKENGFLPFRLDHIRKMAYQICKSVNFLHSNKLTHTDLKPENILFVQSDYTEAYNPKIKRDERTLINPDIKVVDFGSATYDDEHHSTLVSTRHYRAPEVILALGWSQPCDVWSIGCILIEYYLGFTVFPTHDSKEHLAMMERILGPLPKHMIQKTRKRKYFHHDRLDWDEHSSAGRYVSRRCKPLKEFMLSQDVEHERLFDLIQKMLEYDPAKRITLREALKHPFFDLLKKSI
Sequence of UniProt Q9H3Y6 (whole entry, looked up): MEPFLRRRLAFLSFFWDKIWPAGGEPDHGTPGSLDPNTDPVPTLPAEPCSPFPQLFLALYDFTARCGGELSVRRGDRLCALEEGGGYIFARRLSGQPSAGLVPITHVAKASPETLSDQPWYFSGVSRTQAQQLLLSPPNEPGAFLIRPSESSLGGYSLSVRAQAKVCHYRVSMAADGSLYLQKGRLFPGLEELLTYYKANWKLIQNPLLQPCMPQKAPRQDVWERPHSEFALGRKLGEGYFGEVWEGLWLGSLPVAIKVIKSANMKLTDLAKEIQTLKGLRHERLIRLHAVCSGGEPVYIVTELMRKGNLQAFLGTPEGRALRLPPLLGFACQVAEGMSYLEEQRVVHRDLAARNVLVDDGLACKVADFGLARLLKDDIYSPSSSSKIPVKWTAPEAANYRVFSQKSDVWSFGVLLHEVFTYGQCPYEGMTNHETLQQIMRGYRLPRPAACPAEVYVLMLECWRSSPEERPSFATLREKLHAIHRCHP

Set 1 — observed: enzyme activity; mode: inhibitor; concentration: 0.5 µM; relative to: control
Target: Phosphorylase b kinase gamma catalytic chain, skeletal muscle/heart isoform (PHKG1, Homo sapiens, UniProt Q16816)
Residues (Q16816 1-387): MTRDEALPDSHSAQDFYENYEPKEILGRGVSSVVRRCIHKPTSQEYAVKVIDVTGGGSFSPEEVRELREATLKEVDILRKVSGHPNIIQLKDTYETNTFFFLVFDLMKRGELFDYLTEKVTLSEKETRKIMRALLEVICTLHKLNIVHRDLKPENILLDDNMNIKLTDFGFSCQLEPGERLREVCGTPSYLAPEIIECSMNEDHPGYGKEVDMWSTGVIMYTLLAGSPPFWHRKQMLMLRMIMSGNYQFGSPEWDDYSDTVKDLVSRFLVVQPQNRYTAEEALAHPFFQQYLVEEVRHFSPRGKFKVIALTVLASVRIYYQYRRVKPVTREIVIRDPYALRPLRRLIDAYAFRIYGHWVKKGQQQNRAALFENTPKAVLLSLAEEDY
SMILES | remaining activity
Nc1ccc2ncnc(NCCc3ccc(Oc4ccccc4)cc3)c2c1 | 96.4%
COc1cc2ncnc(Nc3ccc(Oc4ccccc4)cc3)c2cc1OC | 91.8%
N#CC(C#N)=C(N)/C(C#N)=C/c1ccc(O)cc1 | 92.5%
NCCNc1ncc(C(N)=O)c(Nc2cccc(C(F)(F)F)c2)n1 | 75.6%
O=S(=O)(c1cccc2cnccc12)N1CCCNCC1 | 90.8%
Cc1cccc(-c2[nH]c(C(C)(C)C)nc2-c2ccc3c(c2)OCO3)n1 | 87.6%
CN(C)c1ccc(C=C2C(=O)Nc3ccccc32)cc1 | 99.1%
COc1ccc(C(=O)Nc2sc3c(c2C(N)=O)CCCC3)cc1OC | 94.3%
COc1cc2ncnc(Nc3ccc(F)c(Cl)c3)c2cc1OCCCN1CCOCC1 | 68.8%
O=C(CCCc1ccc(-c2ccccc2F)cc1)Nc1ccc(O)cc1 | 89.1%
CO[C@H]1C[C@@H]2CC[C@@H](C)[C@@](O)(O2)C(=O)C(=O)N2CCCC[C@H]2C(=O)O[C@H]([C@H](C)C[C@@H]2CC[C@@H](O)[C@H](OC)C2)CC(=O)[C@H](C)/C=C(\C)[C@@H](O)[C@@H](OC)C(=O)[C@H](C)C[C@H](C)/C=C/C=C/C=C/1C | 93%
CNC(=O)c1cc(Oc2ccc(NC(=O)Nc3ccc(Cl)c(C(F)(F)F)c3)cc2)ccn1 | 94.3%
Nc1[nH]nc2nc3ccccc3nc12 | 86.9%
Cc1ccc(Nc2nccc(N(C)c3ccc4c(C)n(C)nc4c3)n2)cc1S(N)(=O)=O | 92.5%
COc1ccc(CNC(=O)Nc2ncc([N+](=O)[O-])s2)cc1 | 101%
C#Cc1cccc(Nc2ncnc3cc(OCCOC)c(OCCOC)cc23)c1 | 93.2%

Set 2 — species: mouse; matrix: microsomes or S9; concentration: 2 µM; time: 0.5 h
Structure (SMILES) | remaining compound [%]
O=C(O)c1cccnc1C(=O)OCc1ccccc1 | 14.5
CCN(C(=O)c1ccccc1)[C@@H]1CCO[C@H](c2ccc(C(=O)Nc3ncccc3C)cc2)C1 | 81.4
O=C(NCCNC1=NS(=O)(=O)c2ccccc21)c1cccc(Br)c1 | 66.6
CC1CCc2c(sc(NC(=O)C3CCCN(S(C)(=O)=O)C3)c2C(N)=O)C1 (stereo not drawn) | 86.5
O=S(=O)(O)c1ccc(-c2cnc(-c3ccc(-c4ncc(-c5ccc(S(=O)(=O)O)cc5)o4)cc3)o2)cc1 | 99
Cc1ccccc1C(C)NS(=O)(=O)c1ccc(Cl)c(-c2nnn[nH]2)c1 (stereo not drawn) | > 100
CCCC(NNC(=O)c1cnccn1)C(=O)OC (stereo not drawn) | 1.03
O=C(Cc1ccc(N(Cc2ccccc2)C(=O)C2CCCC2)cc1)NCc1ccco1 | 4.28
COCCN(Cc1ccc(C)c(Br)c1)S(=O)(=O)c1ccc2[nH]c(=O)ccc2c1 | 0.213
CN1CCC2(CCN(c3cc(C(C)(C)C)nc(Cl)n3)CC2)C1=O | 8.07

Set 3 — organism: Sarcocystis neurona; observed: parasite growth; concentration: 10 µM; time: 96 h; notes: first screen; relative to: untreated
SMILES | log2 fold change
CC(C)(C)NCC(O)c1cc(O)cc(O)c1 (stereo not drawn) | 0.52
CN(C)CCC(c1ccc(Cl)cc1)c1ccccn1 (stereo not drawn) | 0.09
COc1ccc2[nH]c([S+]([O-])Cc3ncc(C)c(OC)c3C)nc2c1 (stereo not drawn) | 0.12
CC1=C(/C=C/C(C)=C/C=C/C(C)=C/C(=O)O)C(C)(C)CCC1 | 0.43
CCC(C)(C)C(=O)O[C@H]1C[C@@H](C)C=C2C=C[C@H](C)[C@H](CC[C@@H]3C[C@@H](O)CC(=O)O3)[C@H]21 | 0.14

Set 4 — observed: cell-free assay; method: competition with immobilised ligand; concentration: 1 µM
SMILES: CC1=C(C#N)C(c2ccc3c(c2)c(NC(=O)c2ccccc2C)nn3C)C(C#N)=C(C)N1
target | remaining binding [%]
RAF proto-oncogene serine/threonine-protein kinase (RAF1, Homo sapiens, UniProt P04049) | 100
Mast/stem cell growth factor receptor Kit (KIT, Homo sapiens, UniProt P10721, D816V) | 85
Dual specificity mitogen-activated protein kinase kinase 7 (MAP2K7, Homo sapiens, UniProt O14733) | 65
Serine/threonine-protein kinase 4 (STK4, Homo sapiens, UniProt Q13043) | 80
Dual specificity protein kinase CLK1 (CLK1, Homo sapiens, UniProt P49759) | 87
Epithelial discoidin domain-containing receptor 1 (DDR1, Homo sapiens, UniProt Q08345) | 74
Serine/threonine-protein kinase Sgk3 (SGK3, Homo sapiens, UniProt Q96BR1) | 95
Fibroblast growth factor receptor 4 (FGFR4, Homo sapiens, UniProt P22455) | 100
Tyrosine-protein kinase Srms (SRMS, Homo sapiens, UniProt Q9H3Y6) | 57
Serine/threonine-protein kinase DCLK3 (DCLK3, Homo sapiens, UniProt Q9C098) | 89
Fibroblast growth factor receptor 2 (FGFR2, Homo sapiens, UniProt P21802) | 97
1-phosphatidylinositol 3-phosphate 5-kinase (PIKFYVE, Homo sapiens, UniProt Q9Y2I7) | 87
Serine/threonine-protein kinase NLK (NLK, Homo sapiens, UniProt Q9UBE8) | 100
Rho-associated protein kinase 1 (ROCK1, Homo sapiens, UniProt Q13464) | 100
Serine/threonine-protein kinase Nek10 (NEK10, Homo sapiens, UniProt Q6ZWH5) | 90
Serine/threonine-protein kinase LATS2 (LATS2, Homo sapiens, UniProt Q9NRM7) | 100
Dual specificity mitogen-activated protein kinase kinase 2 (MAP2K2, Homo sapiens, UniProt P36507) | 82
Mast/stem cell growth factor receptor Kit (KIT, Homo sapiens, UniProt P10721, A829P) | 64
Phosphatidylinositol 4,5-bisphosphate 3-kinase catalytic subunit alpha isoform (PIK3CA, Homo sapiens, UniProt P42336, H1047Y) | 91
SNF-related serine/threonine-protein kinase (SNRK, Homo sapiens, UniProt Q9NRH2) | 100

A few entries again (set 1):
SMILES | remaining activity
CNC(=O)c1cc(Oc2ccc(NC(=O)Nc3ccc(Cl)c(C(F)(F)F)c3)cc2)ccn1 | 94.3%
Cc1cccc(-c2[nH]c(C(C)(C)C)nc2-c2ccc3c(c2)OCO3)n1 | 87.6%
CN(C)c1ccc(C=C2C(=O)Nc3ccccc32)cc1 | 99.1%
Cc1ccc(Nc2nccc(N(C)c3ccc4c(C)n(C)nc4c3)n2)cc1S(N)(=O)=O | 92.5%
